Published values from different studies.
Compare with care: the assays were run in different laboratories. “And” joins repeats or separate records; there may be more than shown. ± marks the error that the study gave.
Cnr1: Cannabinoid receptor 1 (Cnr1, Mus musculus, UniProt P47746)
UniProt P47746, sequence (whole entry, looked up): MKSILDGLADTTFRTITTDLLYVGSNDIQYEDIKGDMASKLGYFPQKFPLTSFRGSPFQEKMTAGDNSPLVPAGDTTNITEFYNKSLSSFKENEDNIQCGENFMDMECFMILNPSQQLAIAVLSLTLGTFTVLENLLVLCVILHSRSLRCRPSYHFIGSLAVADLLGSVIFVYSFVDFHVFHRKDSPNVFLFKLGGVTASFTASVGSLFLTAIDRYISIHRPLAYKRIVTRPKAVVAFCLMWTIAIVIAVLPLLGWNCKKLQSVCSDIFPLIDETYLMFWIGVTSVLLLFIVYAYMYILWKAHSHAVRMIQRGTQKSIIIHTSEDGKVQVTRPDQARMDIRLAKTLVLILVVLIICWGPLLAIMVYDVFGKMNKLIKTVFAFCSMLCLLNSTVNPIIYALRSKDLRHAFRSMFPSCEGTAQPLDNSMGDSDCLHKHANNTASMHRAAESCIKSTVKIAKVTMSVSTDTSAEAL
Genome polyprotein NS2B-NS3 protease: Genome polyprotein, NS2B-NS3 protease (dengue virus type 2, UniProt P29990)
UniProt P02730, sequence (whole entry, looked up): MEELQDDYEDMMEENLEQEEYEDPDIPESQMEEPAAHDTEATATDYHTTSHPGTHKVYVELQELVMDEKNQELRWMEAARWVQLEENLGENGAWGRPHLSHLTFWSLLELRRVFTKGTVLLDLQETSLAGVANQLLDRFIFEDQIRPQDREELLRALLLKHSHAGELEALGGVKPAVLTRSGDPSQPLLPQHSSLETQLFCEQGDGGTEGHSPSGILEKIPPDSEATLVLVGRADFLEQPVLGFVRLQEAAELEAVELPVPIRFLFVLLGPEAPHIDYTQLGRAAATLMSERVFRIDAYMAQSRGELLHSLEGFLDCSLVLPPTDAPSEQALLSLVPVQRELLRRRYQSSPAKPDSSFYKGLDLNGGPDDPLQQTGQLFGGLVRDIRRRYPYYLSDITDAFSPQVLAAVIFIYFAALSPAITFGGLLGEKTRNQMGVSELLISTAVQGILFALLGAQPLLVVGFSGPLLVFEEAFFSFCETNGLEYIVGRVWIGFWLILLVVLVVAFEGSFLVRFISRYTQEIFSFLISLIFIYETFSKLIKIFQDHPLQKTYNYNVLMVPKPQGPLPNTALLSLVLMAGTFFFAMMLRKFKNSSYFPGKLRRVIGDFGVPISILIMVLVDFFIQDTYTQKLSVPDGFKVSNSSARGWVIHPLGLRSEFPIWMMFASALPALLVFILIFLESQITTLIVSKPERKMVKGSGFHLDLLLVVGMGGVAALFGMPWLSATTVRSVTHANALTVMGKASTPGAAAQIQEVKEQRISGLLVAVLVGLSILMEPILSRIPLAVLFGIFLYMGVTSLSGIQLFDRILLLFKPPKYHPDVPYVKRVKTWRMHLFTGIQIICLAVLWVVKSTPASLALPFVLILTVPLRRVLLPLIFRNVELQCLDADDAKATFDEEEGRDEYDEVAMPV
UniProt Q14994, sequence (whole entry, looked up): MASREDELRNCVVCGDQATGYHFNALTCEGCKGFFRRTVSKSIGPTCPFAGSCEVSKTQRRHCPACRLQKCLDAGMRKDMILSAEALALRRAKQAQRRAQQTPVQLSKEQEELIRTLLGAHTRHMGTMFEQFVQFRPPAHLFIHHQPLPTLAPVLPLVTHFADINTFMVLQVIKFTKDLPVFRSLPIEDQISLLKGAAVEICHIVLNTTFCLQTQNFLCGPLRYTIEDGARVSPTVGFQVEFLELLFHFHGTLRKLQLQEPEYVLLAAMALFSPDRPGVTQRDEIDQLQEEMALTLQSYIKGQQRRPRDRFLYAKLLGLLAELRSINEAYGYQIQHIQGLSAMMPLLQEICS
UniProt P28074, sequence (whole entry, looked up): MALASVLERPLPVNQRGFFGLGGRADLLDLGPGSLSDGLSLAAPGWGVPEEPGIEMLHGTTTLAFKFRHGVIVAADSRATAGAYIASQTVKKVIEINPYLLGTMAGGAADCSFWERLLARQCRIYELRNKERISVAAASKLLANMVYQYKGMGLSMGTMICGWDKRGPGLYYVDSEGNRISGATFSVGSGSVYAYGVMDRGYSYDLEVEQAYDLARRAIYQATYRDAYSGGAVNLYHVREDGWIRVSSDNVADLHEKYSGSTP
UniProt Q8VD00, sequence (whole entry, looked up): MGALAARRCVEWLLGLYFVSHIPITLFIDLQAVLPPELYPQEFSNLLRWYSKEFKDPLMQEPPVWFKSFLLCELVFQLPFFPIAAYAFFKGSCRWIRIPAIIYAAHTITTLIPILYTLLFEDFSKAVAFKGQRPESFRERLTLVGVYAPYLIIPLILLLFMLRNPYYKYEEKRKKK
UniProt P23141, sequence (whole entry, looked up): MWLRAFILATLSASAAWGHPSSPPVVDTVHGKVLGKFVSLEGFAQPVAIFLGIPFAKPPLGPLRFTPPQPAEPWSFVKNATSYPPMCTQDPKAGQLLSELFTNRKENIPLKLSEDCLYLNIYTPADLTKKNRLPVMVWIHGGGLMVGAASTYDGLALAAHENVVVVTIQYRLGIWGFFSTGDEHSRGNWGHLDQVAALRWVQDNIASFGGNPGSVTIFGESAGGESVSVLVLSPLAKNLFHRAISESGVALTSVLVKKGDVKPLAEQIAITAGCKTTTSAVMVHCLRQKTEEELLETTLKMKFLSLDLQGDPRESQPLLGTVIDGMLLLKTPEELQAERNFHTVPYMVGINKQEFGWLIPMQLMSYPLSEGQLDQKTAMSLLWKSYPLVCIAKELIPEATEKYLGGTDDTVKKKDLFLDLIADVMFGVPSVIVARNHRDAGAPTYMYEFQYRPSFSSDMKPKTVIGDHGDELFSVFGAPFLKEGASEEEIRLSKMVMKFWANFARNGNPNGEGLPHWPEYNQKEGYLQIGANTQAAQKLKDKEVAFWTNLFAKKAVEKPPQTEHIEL
UniProt P30536, sequence (whole entry, unmodified, looked up): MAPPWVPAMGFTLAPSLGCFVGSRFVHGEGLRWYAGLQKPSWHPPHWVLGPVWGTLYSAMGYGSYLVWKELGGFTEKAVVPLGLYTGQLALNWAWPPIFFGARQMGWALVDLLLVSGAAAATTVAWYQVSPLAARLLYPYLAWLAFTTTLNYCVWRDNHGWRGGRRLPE
UniProt P41145, sequence (whole entry, looked up): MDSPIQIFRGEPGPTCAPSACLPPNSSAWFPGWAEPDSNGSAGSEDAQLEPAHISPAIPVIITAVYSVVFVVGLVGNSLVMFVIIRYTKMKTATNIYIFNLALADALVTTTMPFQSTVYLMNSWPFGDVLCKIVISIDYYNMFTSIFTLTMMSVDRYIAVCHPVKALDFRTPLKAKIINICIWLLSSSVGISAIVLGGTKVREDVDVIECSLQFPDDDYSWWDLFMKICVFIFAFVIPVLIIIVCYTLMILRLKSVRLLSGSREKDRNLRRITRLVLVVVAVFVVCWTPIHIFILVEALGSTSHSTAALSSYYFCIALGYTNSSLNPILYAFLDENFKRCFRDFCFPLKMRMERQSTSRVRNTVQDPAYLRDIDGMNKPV
UniProt P20618, sequence (whole entry, looked up): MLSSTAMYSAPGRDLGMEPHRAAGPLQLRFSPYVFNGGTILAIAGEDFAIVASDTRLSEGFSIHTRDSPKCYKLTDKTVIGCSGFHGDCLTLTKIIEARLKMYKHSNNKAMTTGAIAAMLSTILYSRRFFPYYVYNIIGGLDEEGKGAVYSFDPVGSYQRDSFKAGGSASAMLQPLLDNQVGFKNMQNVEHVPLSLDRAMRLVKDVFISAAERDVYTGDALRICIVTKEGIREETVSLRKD

`CC(C)(C)c1ccc(S(=O)(=O)/C=C/C#N)cc1` — result for IC50: “no inhibition” (C2C12; NF-κB reporter gene; 24 h, added: TNF-α 10 ng/mL).
`CCCCCCC(C)(C)c1ccc([C@@H]2C[C@H](O)CC[C@H]2CCCO)c(O)c1` gave an IC50 of 0.0098 ± 0.0037 µM (Cnr1; cAMP level, agonist; Neuro2A; added: 10 µM forskolin).
`Fc1cc(C2=Nn3c(COc4ccc(Cl)cc4Cl)nnc3S/C2=C\c2ccc(-c3ccc(Cl)cc3)o2)c(Cl)cc1Cl` gave an IC50 of greater than 10 µM (Genome polyprotein NS2B-NS3 protease; enzyme activity, inhibitor; Dengue virus; pH 8.0, added: 20 µM Pyr-RTKR-AMC).
For `O=C(Oc1ccc([N+](=O)[O-])cc1)N1CCC(C(O)(c2ccc3c(c2)OCO3)c2ccc3c(c2)OCO3)CC1`, the IC50 was less than 0.1 µM (Liver carboxylesterase 1 (CES1, Homo sapiens, UniProt P23141); enzyme activity, inhibitor, activity-based protein profiling; THP-1 cell lysate; 30 min, added: FP-biotin 2 µM).
`C[C@@H]1CC[C@H]2[C@@H](C)C(=O)O[C@@H]3O[C@@]4(C)CC[C@@H]1[C@]32OO4` gave an EC50 of greater than 100 µM (HEK293 NF-κB luciferase reporter; NF-κB reporter gene, antagonist; 24 h, added: TNFα 5 ng/mL).
With `CC(=O)C[C@@H](c1ccccc1)c1c(O)c2ccc(O)cc2oc1=O` the Ki was 2840 µM (substrate, measured: 7-hydroxywarfarin 4'-glucuronide; pooled human liver microsomes).
`Clc1ccc(-c2nn3c(COc4cc(Cl)c(OCc5nnc6sc(-c7ccc(Cl)cc7)nn56)cc4Cl)nnc3s2)cc1` has an IC50 of greater than 10 µM (Genome polyprotein NS2B-NS3 protease; enzyme activity, inhibitor; Dengue virus; pH 8.0, added: 20 µM Pyr-RTKR-AMC).
For `CCN(Cc1ccccc1)C(=O)Cn1c2ccccc2c2ccccc21`, the Ki was 0.46 ± 0.083 µM (Translocator protein, A147T (TSPO, Homo sapiens, UniProt P30536); radioligand binding; added: [3H]PK11195).
`CCOc1ccc2cc(-c3nn(C(C)(C)C)c(N)c3C(N)=O)cnc2c1` has an IC50 of 0.002 µM (CDPK1 (Sarcocystis neurona); kinase activity, inhibitor, Kinase-Glo; 90 min, 30 °C, added: 10 µM ATP).
The Ki of `CCCCN1C(=O)C(C=CC=CC=C2C(=O)N(c3ccc(S(=O)(=O)O)cc3)N=C2C)C(=O)N(CCCC)C1=O` is reported as 0.52 to 0.53 µM and 0.524 to 0.529 µM (SLC4A1 (Homo sapiens, UniProt P02730); 36Cl exchange flux, inhibitor; human erythrocytes; 0 °C, chloride-loaded form, short exposure).
The EC50 of `CCCCC(CC)COC(=O)c1ccccc1C(=O)O` (centres unmarked) is reported as 2.2 µM (Nuclear receptor subfamily 1 group I member 3, isoform CAR2 (Homo sapiens, UniProt Q14994); reporter gene, activator; COS-1; 24 h).
`CC(C)(C)c1nn(-c2cc(OCc3cn(Cc4cccc(Br)c4)nn3)c(Cl)cc2Cl)c(=O)o1` gave an IC50 of 31.5 ± 8 µM (Toxoplasma gondii; intracellular growth; HFF, Δppo knockout; 96 h).
For `C=CCN1CCC2(C)c3cc(O)ccc3CC1C2C` (single isomer, unassigned; (-)), the Ki was 4.22 µM (Sigma intracellular receptor 2 (Tmem97, Mus musculus, UniProt Q8VD00); ligand displacement, radioligand; cell membranes).
For `Clc1cc(OCc2nnc3sc(Cc4ccccc4)nn23)c(Cl)cc1OCc1nnc2sc(Cc3ccccc3)nn12`, the IC50 was greater than 10 µM (Genome polyprotein NS2B-NS3 protease; enzyme activity, inhibitor; Dengue virus; pH 8.0, added: 20 µM Pyr-RTKR-AMC).
With `Cc1cc(O)cc(C)c1C[C@H](N)C(=O)NCCN(C)CCN1CCc2ccccc2C1` the EC50 was 1.22 µM (Kappa-type opioid receptor (OPRK1, Homo sapiens, UniProt P41145); GTPγS binding, agonist, radiometric; cell membranes).
`O=C1C(Cl)=C(Nc2ccc(S(=O)(=O)Nc3ccccn3)cc2)C(=O)c2ccccc21` has an IC50 of 1.3 ± 0.19 µM (Proteasome component C5/PSMB5 (Homo sapiens, UniProt P20618+P28074); chymotrypsin-like activity, inhibitor; primary multiple myeloma cells, patient; 24 h, range over sample A patients).
With `CC(C)(C)c1nn(-c2cc(OCc3cn(Cc4ccc(C(F)(F)F)cc4)nn3)c(Cl)cc2Cl)c(=O)o1` the IC50 was 28.4 ± 6.3 µM (Toxoplasma gondii; intracellular growth; HFF, Δppo knockout; 96 h).
`COC(=O)[C@@]1(O)C[C@H]2O[C@]1(C)n1c3ccccc3c3c4c(c5c6ccccc6n2c5c31)C(=O)NC4` has an IC50 of 2.5 ± 0.7 µM (HeLa expressing Luc-ODC; Luc-ODC degradation, inhibitor, cycloheximide chase luciferase).
For `CCCCn1cc(C(=O)c2cccc3ccccc23)c2cccc(O)c21`, the Kb was 0.0481 µM (Cnr1; antagonist, Schild analysis; mouse brain homogenate; added: JWH-018).
With `CC(=O)c1ccc(Cn2cc(COc3cc(-n4nc(C(C)(C)C)oc4=O)c(Cl)cc3Cl)nn2)cc1` the IC50 was 31.9 ± 7.7 µM (Toxoplasma gondii; intracellular growth; HFF, Δppo knockout; 96 h).

A few entries again:
`CC(C)(C)c1nn(-c2cc(OCc3cn(Cc4cccc(Br)c4)nn3)c(Cl)cc2Cl)c(=O)o1` gave an IC50 of 31.5 ± 8 µM (Toxoplasma gondii; intracellular growth; HFF, Δppo knockout; 96 h).
For `C=CCN1CCC2(C)c3cc(O)ccc3CC1C2C` (single isomer, unassigned; (-)), the Ki was 4.22 µM (Sigma intracellular receptor 2 (Tmem97, Mus musculus, UniProt Q8VD00); ligand displacement, radioligand; cell membranes).
For `Clc1cc(OCc2nnc3sc(Cc4ccccc4)nn23)c(Cl)cc1OCc1nnc2sc(Cc3ccccc3)nn12`, the IC50 was greater than 10 µM (Genome polyprotein NS2B-NS3 protease; enzyme activity, inhibitor; Dengue virus; pH 8.0, added: 20 µM Pyr-RTKR-AMC).
